Assay results collected from several papers.
Parts stem from different laboratories: compare values within a part only.

Set 1
Target: RNA binding protein fox-1 homolog 2, RRM domain, GST-SBP tag (RBFOX2, Homo sapiens, UniProt O43251-10, residues 100-194)
Technique: RNA Bind-n-Seq
Form: RNA
Matrix: in vitro
Concentration: 365 nM
Setting: natural RNA segment, single round, ends assumed
Reference: no-protein control
Reading: higher = stronger binding
All sequences stand within: GGGAGUUCUACAGUCCGACGAUC … UGGAAUUCUCGGGUGCCAA
Target sequence (chain): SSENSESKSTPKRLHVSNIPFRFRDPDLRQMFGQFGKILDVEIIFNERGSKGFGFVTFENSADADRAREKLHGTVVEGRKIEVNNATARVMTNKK
`GGAUAGAGUGAGCCCUCUUGCGUCUUCCAGGGUAGCUCAGGUUGGCCCAGUUUGGGCCAGUCCAUUUUUGGAGGUCACUCUUUCCCCCCUCAUCCCCUCACCUCCUUCUC` — result for “RBNS enrichment (R)”: 0.374.
For `AUUCACCAGUUGAUAGACAUGUAGAUUGUUUUCAUGCUGCUGUGACCAUUUGUGUACAAGUGUUUGUGCAGACAUAUGUUUAACUUUUUAGGAAAUUGCCAGACUGUUUU`, “RBNS enrichment (R)” read 0.372.
`GUAUUUUGUUUUAGAAGGUCCUGGCCCAGCGUUGGUUCUUCCUCCUGUAUCCUGUGAGGCCUGGAGCUUUUCAAACACUAGAGGGGGCCUUAGAGUAAGUGGAAAGGACU` — result for “RBNS enrichment (R)”: 0.458.
`CAUCUGCUUGGCUGACCCCACACCCAGGACCACUGUCCGGCUCUAACACAGCUAUUAAGUGCUACCUGCCUCUCAGGCACUCUCCUCGCCCAGUUUCUGAGGUCAGACGA` — result for “RBNS enrichment (R)”: 0.349.
`CAGGGAUCCAAAGGGAACACAGUAUGUAGGUCAAACUGGCAGUAACAGUGUACAGCCUUUGACAAACUAGAAAUAUUAGAGUAGGCCAAACACACCUCCAAACUGUAAGG`: “RBNS enrichment (R)” 0.314.
`UUGUUUUUUGUUGUUGUUGUUAUUUUUUUCUCCUUGUUUGUAUUUAAUUAAAACAAAUUGUCAUGAGGAAAUGUUCUCUGUUUGGAUGGCUCUUUUGUGUGUGAACUGUU`: “RBNS enrichment (R)” 8.56.
For `UCGCCACUGCCAAAGACUCCCAGGAAGCCACUAGCAAAUGGAACUCUGUAACCCCAUCAUGACAAGAGUGGCCACUCUCCGCCUGCACAGGGAUGAAAUAGAAAGCCUUA`, “RBNS enrichment (R)” read 0.36.
Under “RBNS enrichment (R)”, `ACUACAGUUAAAACUACUCUUGCACUGCAACAGUGCAUAUGACCUUUAUGUGAUUGUACAGUAUUAAAAGUUUUUUCUUAUGUACAGUAAACUUUAUCAUAUGGCAGAAG` is recorded as 0.246.

Set 2
Target: Replicase polyprotein 1ab, polymerase (rep, Severe acute respiratory syndrome coronavirus 2, UniProt P0DTD1)
Read-out: enzyme activity
Mode: inhibitor
Concentration: 20 µM
With `CN(C)C(=S)SSC(=S)N(C)C` the inhibition was -9.37%.
`O=C(Nc1ccccc1)c1cc([N+](=O)[O-])ccc1Cl` has an inhibition of -1.98%.
For `CC(=O)c1cc2c(o1)C(=O)c1ccccc1C2=O`, the inhibition was 5.5%.
`O=C(O)/C=C/c1ccc(Cn2ccnc2)cc1` has an inhibition of -1.12%.
The inhibition of `Nc1nc(Cl)nc2c1ncn2[C@@H]1O[C@H](CO)[C@@H](O)[C@@H]1F` is reported as 25%.
`CN(C)N=Nc1ccc(C(=O)O)cc1` has an inhibition of 0.78%.
With `O=C(O)CCCCC(=O)O` the inhibition was 2.66%.
`CC(=O)N1CC[N+](C)(C)CC1` gave an inhibition of -12.4%.
The inhibition of `Cn1cc(-c2cc(Oc3cc(F)c(NC(=O)C4(C(=O)Nc5ccccc5)CC4)cc3F)ccn2)cn1` is reported as -0.21%.
With `NC(=O)c1cnc(N[C@@H]2CCCC[C@@H]2N)nc1Nc1cccc(-n2nccn2)c1` the inhibition was -2.21%.
With `O=C(O)c1ccccc1S` the inhibition was -2.44%.
The inhibition of `COC(=O)c1cc2c(C(F)(F)F)cc(-c3ccccc3)cc2n1O` is reported as -4.12%.
The inhibition of `Cc1cccc(C)c1NC(=O)C(C)N` (stereo not drawn) is reported as 3.7%.
`C=C(C)[C@@H]1CC[C@]2(C(=O)O)CC[C@]3(C)[C@H](CC[C@@H]4[C@@]5(C)CC[C@H](O)C(C)(C)[C@@H]5CC[C@]43C)[C@@H]12` gave an inhibition of 6.5%.
With `O=C1/C(=C/c2ccccc2)C(NC2CCCCC2)c2ccccc21` (stereo not drawn) the inhibition was -1.99%.
`NCCc1ccc(O)c(O)c1` gave an inhibition of 20.6%.
`CN1CC[C@@H]2CN3CCc4cccc(c43)[C@@H]2C1` gave an inhibition of 1.8%.
With `N[C@@H](CC(=O)N1CCn2c(nnc2C(F)(F)F)C1)Cc1cc(F)c(F)cc1F` the inhibition was 50%.
`CCOc1cc(C(C)(C)C)ccc1C1=N[C@@](C)(c2ccc(Cl)cc2)[C@@](C)(c2ccc(Cl)cc2)N1C(=O)N1CCN(CCCS(C)(=O)=O)CC1` has an inhibition of -0.78%.
With `CN(C)CCCSC(=N)N` the inhibition was -3.31%.
With `Cc1cccc(C)c1NC(=O)CN1CCN(CCCC(c2ccc(F)cc2)c2ccc(F)cc2)CC1` the inhibition was 2.29%.
With `c1ccc(-c2nn3c(c2-c2ccnc4cc(OCCN5CCOCC5)ccc24)CCC3)nc1` the inhibition was -6.45%.
With `Cc1ccc(-c2ncccn2)c(C(=O)N2C[C@H](COc3ccc(F)cn3)CC[C@H]2C)c1` the inhibition was -2.74%.
For `CCOc1ccccc1C(N)=O`, the inhibition was -0.31%.
For `COC(=O)C1=C(C)NC(C)=C(C(=O)OC(C)(C)CN(C)CCC(c2ccccc2)c2ccccc2)C1c1cccc([N+](=O)[O-])c1` (stereo not drawn), the inhibition was -2.96%.

Set 3
Organism: SARS-CoV-2
Read-out: cytopathic effect
Cells: Vero E6
Concentration: 10 µM
With `Nc1ccc(O)c2ncccc12` the inhibition was -40.9%.
`CCn1c(-c2nonc2N)nc2cncc(CNC3CCNCC3)c21` has an inhibition of 10.8%.
`O=C1NC(=O)C(c2ccccc2)N1` (stereo not drawn) gave an inhibition of 2.9%.
`O=C(O)c1cc(O)c(O)c(O)c1` has an inhibition of -4.3%.
For `CCN(CC)C(=S)S`, the inhibition was -2.5%.

Set 4
Cell line: HEK-293T
Organism: VSV pseudotyped with SARS-CoV-2 spike
Concentration: 10 µM
Time: 16 h
For `CC1=C(C(=O)O)N2C(=O)[C@@H](NC(=O)[C@H](N)c3ccccc3)[C@H]2SC1`, the pseudovirus infection was 87.4%.
The pseudovirus infection of `CCN(CC)CCOC(=O)C1(C2CCCCC2)CCCCC1` is reported as 36.9%.
`O=C1CN(/N=C/c2ccc([N+](=O)[O-])o2)C(=O)N1` gave a pseudovirus infection of 72.7%.
`C#CCN[C@@H]1CCc2ccccc21` gave a pseudovirus infection of 97%.
With `CN(C)CCCN1c2ccccc2CCc2ccc(Cl)cc21` the pseudovirus infection was 37.5%.

Set 5
Target: Sal-like protein 4, full length isoform A (SALL4, Homo sapiens, UniProt Q9UJQ4, residues 1-1053)
UniProt Q9UJQ4, sequence (whole entry, looked up): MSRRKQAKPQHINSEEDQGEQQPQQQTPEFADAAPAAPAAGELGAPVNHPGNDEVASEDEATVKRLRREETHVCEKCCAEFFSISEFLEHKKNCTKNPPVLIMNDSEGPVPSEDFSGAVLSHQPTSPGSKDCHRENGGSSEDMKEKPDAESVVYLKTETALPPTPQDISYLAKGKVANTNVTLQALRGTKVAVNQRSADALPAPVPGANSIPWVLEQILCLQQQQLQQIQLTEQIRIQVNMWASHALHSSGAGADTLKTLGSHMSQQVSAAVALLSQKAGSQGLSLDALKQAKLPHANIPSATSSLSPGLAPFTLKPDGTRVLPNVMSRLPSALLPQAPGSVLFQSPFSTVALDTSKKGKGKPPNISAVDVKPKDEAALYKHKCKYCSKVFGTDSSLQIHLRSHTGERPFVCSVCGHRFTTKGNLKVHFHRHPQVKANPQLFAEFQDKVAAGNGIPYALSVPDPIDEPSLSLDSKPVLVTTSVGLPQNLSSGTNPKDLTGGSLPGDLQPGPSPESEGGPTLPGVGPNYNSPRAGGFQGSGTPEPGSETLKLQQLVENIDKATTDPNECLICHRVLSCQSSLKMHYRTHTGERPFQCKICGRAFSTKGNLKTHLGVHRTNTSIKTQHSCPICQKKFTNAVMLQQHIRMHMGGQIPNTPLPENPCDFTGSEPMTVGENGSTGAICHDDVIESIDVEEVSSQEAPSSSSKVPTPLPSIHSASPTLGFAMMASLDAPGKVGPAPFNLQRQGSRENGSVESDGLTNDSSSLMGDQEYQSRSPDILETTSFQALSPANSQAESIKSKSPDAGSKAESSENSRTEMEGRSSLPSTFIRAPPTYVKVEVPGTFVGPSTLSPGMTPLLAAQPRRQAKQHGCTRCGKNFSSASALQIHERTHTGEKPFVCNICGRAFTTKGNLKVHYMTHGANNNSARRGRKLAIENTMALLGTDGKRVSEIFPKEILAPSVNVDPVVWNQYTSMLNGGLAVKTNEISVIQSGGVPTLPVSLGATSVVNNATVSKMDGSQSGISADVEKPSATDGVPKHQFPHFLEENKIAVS
Technique: universal PBM
Form: double-stranded DNA, one strand shown
Matrix: in vitro
Concentration: 600 nM
Setting: 8-mer, flanks averaged, mean of replicates
Reading: higher = stronger binding
With `ATGTGGCG` the E-score was -0.118.
With `CACCATAG` the E-score was -0.168.
The E-score of `CAGGAACA` is reported as 0.0848.
The E-score of `ATCTCAAT` is reported as 0.244.
`CTATTTGA` has an E-score of 0.194.
`TACTATCA` has an E-score of 0.183.
For `CGCTTAAC`, the E-score was -0.019.
For `GTTGCCCA`, the E-score was -0.025.

Excerpt of the above (set 5):
The E-score of `ATCTCAAT` is reported as 0.244.
With `ATGTGGCG` the E-score was -0.118.
For `GTTGCCCA`, the E-score was -0.025.
For `CGCTTAAC`, the E-score was -0.019.
With `CACCATAG` the E-score was -0.168.
`TACTATCA` has an E-score of 0.183.
